Published values gathered from unrelated publications.
Every numbered part comes from another study and shows a few of its results, in no order.

Block 1
Target: Sal-like protein 4, full length isoform B (SALL4, Homo sapiens, UniProt Q9UJQ4-2, residues 1-616)
Method: universal PBM
Molecule type: double-stranded DNA, one strand shown
Medium: in vitro
Concentration: not given
Setting: 8-mer, flanks averaged, mean of replicates
Reading: higher = stronger binding
With `ATAACAAG` the E-score was 0.309.
For `ATGACGAC`, the E-score was 0.024.
The E-score of `ACGGCCCC` is reported as -0.342.
The E-score of `CAACGCTA` is reported as -0.144.
`GATGGAAC` has an E-score of -0.0888.
`CAATTTCC` has an E-score of 0.0646.
For `GACTGCTA`, the E-score was -0.0833.
`GACGCACA` has an E-score of -0.0107.
With `TCATTGCA` the E-score was 0.0639.
`GCCGGGCA` gave an E-score of -0.326.
`AGCTGGCG` gave an E-score of -0.342.
`AACTTCAT` has an E-score of 0.151.
`CTGCCTAA` gave an E-score of -0.128.
The E-score of `ACATCCGG` is reported as -0.0802.
`CGCGGCGA` gave an E-score of -0.321.
`CAGCCCGA` has an E-score of -0.376.
For `CGTTGACC`, the E-score was -0.13.
With `ACCGAATG` the E-score was 0.0368.
The E-score of `CGGATCAG` is reported as -0.278.
The E-score of `AGTAGCTG` is reported as -0.0197.
The E-score of `GAAGCTAA` is reported as -0.0262.
For `GTCCTATA`, the E-score was 0.0453.
The E-score of `ATCCCGAC` is reported as -0.145.
The E-score of `ACCGTTAT` is reported as 0.179.

Block 2
Target: Prothrombin, mature alpha-thrombin (F2, Homo sapiens, UniProt P00734)
Method: aptamer microarray, sandwich
Molecule type: DNA with 2'F-ANA
Medium: in vitro
Concentration: 200 nM
Setting: whole 15-mer aptamer, many near background
Added: Cy3 exosite-II aptamer, 400 nM
Reading: higher = stronger binding
Oligonucleotide: GGTTGGTGTGGTTGG
`2'F-ANA at 5 6 7 8 9 11 12 13 14` — result for “mean fluorescence intensity”: 47.1 a.u.
`2'F-ANA at 1 2 8 10 12 13 14` — result for “mean fluorescence intensity”: 51.9 a.u.
`2'F-ANA at 1 3 4 7 8 9 12 15` — result for “mean fluorescence intensity”: 489 a.u.
`2'F-ANA at 2 3 4 5 6 7 8 9 11 12 13 15`: “mean fluorescence intensity” 91.1 a.u.
For `2'F-ANA at 2 7 8 10 11 12 15`, “mean fluorescence intensity” read 173 a.u.
For `2'F-ANA at 1 3 5 9 12 13 14 15`, “mean fluorescence intensity” read 46.3 a.u.
Under “mean fluorescence intensity”, `2'F-ANA at 1 2 5 9 15` is recorded as 64.1 a.u.
Under “mean fluorescence intensity”, `2'F-ANA at 2 6 7 9 11 12 13 14` is recorded as 127 a.u.
For `2'F-ANA at 1 2 5 6 9 10 12 13 14`, “mean fluorescence intensity” read 51.1 a.u.
Under “mean fluorescence intensity”, `2'F-ANA at 2 3 6 7 12 13 14` is recorded as 393 a.u.
For `2'F-ANA at 1 2 4 9 10 13 14`, “mean fluorescence intensity” read 40.6 a.u.
Under “mean fluorescence intensity”, `2'F-ANA at 2 7 9 10 11 12 14` is recorded as 88.7 a.u.
Under “mean fluorescence intensity”, `2'F-ANA at 1 3 5 8 10 11 13 15` is recorded as 51.6 a.u.
For `2'F-ANA at 1 2 4 5 7 8 12 14`, “mean fluorescence intensity” read 51.6 a.u.
Under “mean fluorescence intensity”, `2'F-ANA at 1 3 4 5 9 14` is recorded as 42.8 a.u.
Under “mean fluorescence intensity”, `2'F-ANA at 1 2 4 5 8 11 12 15` is recorded as 80.8 a.u.
`2'F-ANA at 3 11 12 14 15`: “mean fluorescence intensity” 636 a.u.
`2'F-ANA at 2 5 7 11 12 13 15` — result for “mean fluorescence intensity”: 99 a.u.

Block 3
Target: Phosphate system positive regulatory protein PHO4, full length, GST-tagged (PHO4, Saccharomyces cerevisiae, UniProt P07270, residues 1-312)
Method: competition protein-binding microarray
Molecule type: double-stranded DNA, one strand shown
Medium: in vitro
Concentration: 2 µM
Setting: whole 60-bp probe, lowest competitor level
Added: Cbf1 competitor, 0.05 µM
Reading: higher = stronger binding
All sequences stand within: … GTCTTGATTCGCTTGACGCTGCTG
Residues (chain): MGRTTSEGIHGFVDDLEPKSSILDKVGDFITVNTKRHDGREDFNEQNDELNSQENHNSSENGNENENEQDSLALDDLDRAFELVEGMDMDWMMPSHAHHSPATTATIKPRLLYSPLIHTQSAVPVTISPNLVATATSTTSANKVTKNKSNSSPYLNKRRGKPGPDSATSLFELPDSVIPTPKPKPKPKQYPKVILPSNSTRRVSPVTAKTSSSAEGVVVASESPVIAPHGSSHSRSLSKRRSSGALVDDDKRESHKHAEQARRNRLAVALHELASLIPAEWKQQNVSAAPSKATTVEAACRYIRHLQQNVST
For `CTAACGAAGGTTTGTCACCCTACTTACAAGCCAAGT`, the fluorescence intensity was 3420 a.u.
The fluorescence intensity of `GAGTTTGATTCCAAACTCGTGGTGATACCAACGAAG` is reported as 8810 a.u.
The fluorescence intensity of `GACCAGCCGCACCGTCACGTGACGGTATACGATCCT` is reported as 13200 a.u.
`GAAACAGAACTCGCTGATGTGATATTCACCATTCCA` gave a fluorescence intensity of 3190 a.u.
For `AAAAAAAGAAGAGATAACGTGGGTACAGCTAAAAAA`, the fluorescence intensity was 12100 a.u.
For `AACTCCTGTGGCAACTTCGTGATGGTGTTGATCTCC`, the fluorescence intensity was 4990 a.u.
With `CGTCCTAGTGATTTTCACGTGGAATCCATGAGGAAG` the fluorescence intensity was 11500 a.u.
For `AGATCCTGGACATGGAACGTGAACCTAGGCTTGATG`, the fluorescence intensity was 8020 a.u.
With `CGGGGTTAAGTTTTTCACGTGGGTTGCTTGCAGCAG` the fluorescence intensity was 14400 a.u.
`ATGTACAGCGGTACCCTCGTGTTTTCTGCAGCGAGA` gave a fluorescence intensity of 13200 a.u.
With `GGACCCGGCCCCGCGCACGCGGACTCCGGGACTACA` the fluorescence intensity was 11500 a.u.
`GCCATCTGTAATCAACATGTGAACTGAATGAAGCCG` has a fluorescence intensity of 6710 a.u.
With `CTAACGAAGGTTTGTACTGTGGGTGACAAGCCAAGT` the fluorescence intensity was 3570 a.u.
The fluorescence intensity of `CATTGGCCAGGGACGCATGTGCAGAGGCGGCAGAGT` is reported as 10400 a.u.
`GACAGTCTTAGTGTAGACATGACAGTTCTTGGTGGC` has a fluorescence intensity of 3860 a.u.
`CCCGCCCAAGCCGACCACGTGCCGCGAGCCCGGCGG` gave a fluorescence intensity of 17200 a.u.
`ATCCTAGCCCTAACGCATGTGCTACTTCAAGGAATT` gave a fluorescence intensity of 12500 a.u.
The fluorescence intensity of `CGTCCTAGTGATTGCTAAGTGGGTGCCATGAGGAAG` is reported as 6710 a.u.
For `TTGGCCGGGTCTTGTCACGTGAAGAGAGAAATTCGG`, the fluorescence intensity was 10200 a.u.

Block 4
Target: Histone acetyltransferase KAT6A, winged helix 2, GST fusion (KAT6A, Homo sapiens, UniProt Q92794, residues 85-181)
Method: protein binding microarray
Molecule type: double-stranded DNA, one strand shown
Medium: in vitro
Concentration: not given
Setting: 8-mer, flanks averaged, mean of 2 arrays, mostly near background
Baseline: not given
Reading: higher = stronger binding
Construct (chain): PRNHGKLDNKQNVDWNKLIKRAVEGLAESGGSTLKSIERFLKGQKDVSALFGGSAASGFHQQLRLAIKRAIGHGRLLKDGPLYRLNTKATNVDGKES
For `CATCTGCC`, the E-score was -0.0804.
`ACCTTACT` gave an E-score of 0.0428.
`GGGACGAA` gave an E-score of 0.244.
With `TTGACAAA` the E-score was 0.0394.
`CCGTCAGG` gave an E-score of 0.137.
The E-score of `ATTGGGAG` is reported as -0.0955.
For `CGCCCCTC`, the E-score was -0.00357.
With `ACGTGTCT` the E-score was -0.206.
`CCGGATTC` gave an E-score of 0.0956.
The E-score of `ATACGGTG` is reported as 0.0352.
`CTGAACGC` has an E-score of 0.0255.
For `ACAACAGT`, the E-score was -0.0573.
The E-score of `CTCTCATC` is reported as -0.135.
With `CCTATGTC` the E-score was -0.00106.
The E-score of `ATCAATTA` is reported as 0.114.
With `AGGCAACG` the E-score was 0.145.
With `GTAGCAAA` the E-score was 0.0947.
For `CATTGTGA`, the E-score was -0.0755.
`CGGCTACA` has an E-score of 0.0377.

Block 5
Target: RING finger protein unkempt homolog, zinc fingers 1-6, GST-SBP tag (UNK, Homo sapiens, UniProt Q9C0B0, residues 30-357)
Method: RNA Bind-n-Seq
Molecule type: RNA
Medium: in vitro
Concentration: not given
Setting: RNA with constant flanks, ends assumed
Baseline: input RNA pool
Reading: higher = stronger binding
All sequences stand within: GGGAGUUCUACAGUCCGACGAUC … CAACAGAGGAUUGAGCAUCA
Target sequence (chain): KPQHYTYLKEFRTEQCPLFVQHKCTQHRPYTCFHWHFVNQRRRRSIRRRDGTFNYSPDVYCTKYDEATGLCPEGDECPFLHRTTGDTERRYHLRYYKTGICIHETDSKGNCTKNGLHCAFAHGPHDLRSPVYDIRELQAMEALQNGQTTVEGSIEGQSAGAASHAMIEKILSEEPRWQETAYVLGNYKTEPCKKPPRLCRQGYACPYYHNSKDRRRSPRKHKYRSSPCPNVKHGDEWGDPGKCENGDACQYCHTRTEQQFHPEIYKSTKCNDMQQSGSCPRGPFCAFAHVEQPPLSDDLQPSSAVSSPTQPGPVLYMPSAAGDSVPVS
For `GGCUCUGCACAGAAGGGCCUGCAAGUGGAUCUGCAGUCUGACGGGGCAGCAGCAGAAGAUACCGUGGCAAGUGAGCAGUCUCUAGGCCAAAAACUUGUGAUCUGGGGAACAGAUGUAAAU`, the bound/input enrichment was 0.202 ratio.
The bound/input enrichment of `AGUUUCAGUUCAAACUUGAGCCCCCAAGAGUGGGUCCAGCUGUGGUUCACAGUUACCCGUUUCCGAAGUGAAGUUUCAUUUUCUGGGUGCCUUUGAAAACUGACUUCAUGUGUUUGUGAC` is reported as 0.142 ratio.
The bound/input enrichment of `GAUUUCCUCACGUGCUCGCUUCGGCAGCACAUAUACUAAAAUUGGGACAAUACAGAGAAGAUCCGCGUGGCCCCUGCGCAAGGAUGACACGCAAAUUCGUGAAGCGUUCCAUAUUUUUGU` is reported as 0.0688 ratio.
With `GAAGUCAGGAAAAAGUGUGCUGAGGAGGCCCAGCUGAUUUCUUCCCUGAAAGCAGAAAUAACCCGUCAAGAAUCUCAGAUCUCCAGUUAUGAGGAAGAACUGUUGAAAGCUAGAGAAGAA` the bound/input enrichment was 0.317 ratio.
With `CUGAAGUCAGGAAUGUCUCCUGAGCAGAGUAAGACUAAACCUGACUCUAGCAUAUAUCCUUCCGCCGACUCUAAAUCUUUUCUGGUGCAGAGCAGAUUGGAGCCUUCUGAAUUAAAAGAG` the bound/input enrichment was 0.305 ratio.
`GAAACAUCUCCAGAGACAUCACUGAUCCAAGAUGAAGUUGCCCUCAAGCUGUCUGCCGAAAUCCCUUGCCCGCCUCCAGUUUCCGAAGCUGAUUUAUCCACGGAUGAGAAGGGUGAGGUC` has a bound/input enrichment of 0.125 ratio.

A few entries again (block 1):
`CAATTTCC` has an E-score of 0.0646.
For `GACTGCTA`, the E-score was -0.0833.
`GACGCACA` has an E-score of -0.0107.
With `TCATTGCA` the E-score was 0.0639.
`GCCGGGCA` gave an E-score of -0.326.
`AGCTGGCG` gave an E-score of -0.342.
`AACTTCAT` has an E-score of 0.151.
